Measurements pooled from the literature.
Compare with care: the assays were run in different laboratories. ± gives the spread as reported.

SMILES	cell line	test	conditions	how to read	IC50 [µM]
CO[C@@H]1[C@@H](O[C@@H]2O[C@H](C)[C@@H](O[C@H]3C[C@@](C)(O)[C@@H](OC(=O)Nc4ccc(C)cc4)[C@H](C)O3)[C@H](N(C)C)[C@H]2O)[C@@H](CC=O)C[C@@H](C)[C@@H](O[C@H]2CC[C@H](N(C)C)[C@@H](C)O2)/C=C/C=C/C[C@@H](C)OC(=O)C[C@H]1O	GES1	cell growth or viability, CCK-8	72 h	–	41.7
COC(=O)C[C@H]1Oc2ccccc2C(=O)[C@]1(C)[N+](=O)[O-]	human Fibroblast	cell growth or viability, SRB	96 h	–	> 100
CCc1ccc([C@H](C)CC(=O)NC(=O)N[C@@H]2O[C@H](COC(C)=O)[C@@H](OC(C)=O)[C@H](OC(C)=O)[C@H]2OC(C)=O)cc1	human T-lymphocyte	cell growth or viability	72 h	–	41
C=C1C(=O)O[C@H]2CC3=C[C@@H](C/C(C)=C/[C@@H](OC(=O)/C=C/c4ccccc4)[C@H]12)OC3=O	SK-MEL-2	cell growth or viability, MTT	24 h	–	5.7
Cc1ccc2nc(Cl)c(-c3nc4cc(C)c(C)cc4[nH]3)cc2c1	L02	cell growth or viability, MTT	48 h	–	> 100
CCCCCCCCCCCCCCCCn1c(-c2cccnc2)nc(-c2ccc(C)cc2)c1-c1ccc(C)cc1	BT-474	cell growth or viability, SRB	24 h	–	> 100
Cc1cc(C)c([N+]#[C][Pt-]([Cl])([Cl])=[C](Nc2ccc(CN[C](NC(C)(C)C)=[Au][Cl])cc2)Nc2c(C)cc(C)cc2C)c(C)c1	MRC5	cell growth or viability	–	–	> 100
N#Cc1cccc(-c2ccc(=O)n(Cc3cccc(-c4ncc(OCC5CCN(CC(=O)N6CCN(CCNc7ccc8c(c7)C(=O)N(C7CCC(=O)NC7=O)C8=O)CC6)CC5)cn4)c3)n2)c1 (stereo not shown)	EBC-1	cell growth or viability, CCK-8	72 h	–	0.00244
CC1=CC(c2cccc(C(F)(F)F)c2)=[O+][Ru-]([Cl])[O]1.Cc1c(C)c(C)c(C)c(C)c1C	A2780cis, cisplatin-resistant	cell viability, MTT	72 h	–	6.7 ± 2
CC1CCN(Cc2cc(/C=C/C(=O)c3ccc(F)cc3)ccc2O)CC1	WRL68	cell growth or viability, MTT	72 h	–	10.4
Cc1cc(C)c(-n2c3c([n+](-c4c(C)cc(C)cc4C)[c]2[Cu-][Cl])-c2cccc4cccc-3c24)c(C)c1	NTERA2	cell growth or viability, MTT	72 h	–	4
COc1c(O)cc2oc3cc4c(c(O)c3c(=O)c2c1CCC(C)(C)O)CCC(C)(C)O4	SMMC-7721	cell growth or viability	48 h	–	> 40
CC1=C2[O][Ru-]([Cl])[O+]=C2C=CN1CCCN1C=CC2=[O+][Ru-]([Cl])[O]C2=C1C.Cc1ccc(C(C)C)cc1.Cc1ccc(C(C)C)cc1	KYSE-70	cell growth or viability, crystal violet	96 h	–	> 20
Oc1ccc(C(=NNc2ccccc2)c2ccc(O)cc2)cc1	NCI-H441	cell growth or viability, ATP luminescence	72 h	–	30.9
CO[C@@H]1[C@@H](O[C@@H]2O[C@H](C)[C@@H](O[C@H]3C[C@@](C)(O)[C@@H](OC(=O)CC(C)C)[C@H](C)O3)[C@H](N(C)C)[C@H]2O)[C@@H](CC=O)C[C@@H](C)[C@@H](O[C@H]2CC[C@H](N(C)C)[C@@H](C)O2)/C=C/C=C/C[C@@H](C)OC(=O)C[C@H]1O	GES1	cell growth or viability, CCK-8	72 h	–	18.5
CC(C)c1cccc(C(C)C)c1[N+]#[C][Pd-]([Cl])([Cl])=[C](Nc1ccc(CN[C](NC(C)(C)C)=[Au][Cl])cc1)Nc1c(C(C)C)cccc1C(C)C	MRC5	cell growth or viability	–	–	> 100
CN1CCN(Cc2cccc(-c3ccc4[nH]c5ncc(/C=C/c6ccccc6)cc5c4c3)c2)CC1	Ba/F3 NPM-ALK	cell proliferation, [3H]-thymidine incorporation	–	–	2.2
CCCCCCCCn1c(-c2cccnc2)nc(-c2ccccc2)c1-c1ccccc1	BT-474	cell growth or viability, SRB	48 h	–	53.2
CC[C@H](C)[C@H](NC(=O)[C@@H]1CCCN1C(=O)[C@@H](NC(=O)[C@@H]1CCCN1C(=O)[C@H](CCCCN)NC(=O)[C@H](CCCCN)NC(=O)[C@H](CCCCN)NC(=O)[C@@H]1CCCN1C(=O)[C@@H](N)CCSC)[C@@H](C)O)C(=O)N[C@@H](CCC(N)=O)C(=O)N[C@@H](CC(C)C)C(=O)N[C@@H](CC(N)=O)C(=O)N1CCC[C@H]1C(=O)N[C@@H](CCCCNC(=O)CNC(=O)[C@H](CCCCN)NC(=O)[C@H](CCCNC(=N)N)NC(=O)[C@H](Cc1ccccc1)NC(=O)[C@H](CCCNC(=N)N)NC(=O)[C@H](CCCNC(=N)N)NC(=O)[C@H](CCCNC(=N)N)NC(=O)[C@H](CO)NC(=O)[C@H](Cc1ccc(O)cc1)NC(=O)[C@H](CO)NC(=O)[C@H](CC(C)C)NC(=O)[C@H](CCCNC(=N)N)NC(=O)[C@@H](N)CCCNC(=N)N)C(N)=O	HPAEC	ERK1/2 phosphorylation, inhibitor, Western blot	0.5 h pre-incubation, serum-free medium, with: 1 ng/mL VEGF	–	15.9
CC(=O)OC[C@H]1O[C@@H](NC(=O)CCCc2ccc3c(c2)CCCC3)[C@H](OC(C)=O)[C@@H](OC(C)=O)[C@@H]1OC(C)=O	human T-lymphocyte	cell growth or viability	72 h	–	116

SMILES	cell line	test	conditions	how to read	IC50 [µM]
CCCC(CCC)C(=O)[O][Pt]([Cl])([Cl])[O]C(=O)C(CCC)CCC.N.N	five cancer cell lines	cytotoxicity	mean over panel	–	1.4
C1=[N+]2CCCC[N+]3=Cc4ccc5[n]4[Au-]23[n]2c1ccc2-c1nc2ccccc2nc1-5.F[P-](F)(F)(F)(F)F	melanoma cancer cell lines	–	NCI60 panel mean	–	27
N#Cc1cccc(-c2ccc(=O)n(Cc3cccc(-c4ncc(OCC5CCN(CC(=O)NCCOCCNc6cccc7c6C(=O)N(C6CCC(=O)NC6=O)C7=O)CC5)cn4)c3)n2)c1 (stereo not shown)	EBC-1	cell growth or viability, CCK-8	72 h	–	0.00585
Clc1nc2ccccc2cc1-c1nc2ccccc2[nH]1	BEL-7404	cell growth or viability, MTT	48 h	–	> 100
O=C(/C=C/c1ccc2c(c1)C(=O)N(CCCc1ccccc1)CC2)NO	GES1	cell growth, SRB	72 h	–	0.57 ± 0.23
CCCCCCCCC=CCCCCCCCCn1c(-c2cccnc2)nc(-c2ccc(C)cc2)c1-c1ccc(C)cc1	BT-474	cell growth or viability, SRB	24 h	–	> 100
C=C[CH2][Pd-]([Cl])[Cl].Cc1cc(C)c(-n2c[n+](-c3c(C)cc(C)cc3C)c3c2-c2cccc4cccc-3c24)c(C)c1	NTERA2	cell growth or viability	72 h, 3D culture	–	36
COC1CCC(Nc2nc(-c3nccn3C)nc3sc(-c4ccn(C)n4)c(-c4ccccc4)c23)C1 (stereo not shown)	MIA PaCa-2 (KRAS G12C)	Western blot, refers to: phospho-MEK and phospho-ERK1/2	6 h, with: EGF 15 min	–	~1
CC/C(=C(/c1ccc(O)cc1)c1ccc(OCCN(C)CCOCCOCCOCCOCCOC)cc1)c1ccccc1	MCF7 (ER-positive)	cell growth	96 h	–	0.4
Cc1ccc(NC(=O)c2c(C)oc3ccc(O)c(CN4CCCCCC4)c23)cc1	MOLP-8	cell growth or viability, MTS	72 h	–	8.3
CCn1cc(/C=C/c2ccc3ccccc3[n+]2CC)c2ccccc21	HTB26	cell growth or viability, MTT	24 h	–	4.45
Cn1ccc(-c2cc(Cl)c(Cl)c3[nH]c4c(c23)CN(C(=O)CO)CC4)n1	wild-type mouse BMDM	CXCL10 secretion, inhibitor	with: 100 bp dsDNA	–	> 30
CCOc1ccccc1-c1ccc2[nH]c3ncc(/C=C/c4ccccc4)cc3c2c1	Ba/F3 NPM-ALK	cell proliferation, [3H]-thymidine incorporation	–	–	4
CN1CCCNC(=O)CC2(CCCCC2)CC(=O)NCCCN(C)CCCNc2cccc3c2C(=O)c2cccc(c2C3=O)NCCC1	Ca9-22	cell growth or viability, CCK-8	48 h	–	> 20
Cc1ccc(C(=O)C2Sc3nnc(-n4nc(C)cc4C)n3NC2c2ccc(Cl)cc2)cc1 (racemic)	DND41	cell growth or viability, imaging	72 h	–	> 100
CC(=O)C1=C(C)NC(SCC(=O)c2ccccc2)=C(C#N)C1c1sccc1C (stereo not shown)	HeLa with GR	AP-1 reporter transrepression	with: PMA 1 ng/mL	reference: dexamethasone 10 µM	1.06 ± 0.029
Clc1nc2cc3c(cc2cc1-c1nc2cc(Br)ccc2[nH]1)OCO3	BEL-7404	cell growth or viability, MTT	48 h	–	> 100
CCCCNC(=O)O[C@H]1[C@H](C)O[C@@H](O[C@H]2[C@H](N(C)C)[C@@H](O)[C@H](O[C@H]3[C@@H](CC=O)C[C@@H](C)[C@@H](O[C@H]4CC[C@H](N(C)C)[C@@H](C)O4)/C=C/C=C/C[C@@H](C)OC(=O)C[C@@H](O)[C@@H]3OC)O[C@@H]2C)C[C@@]1(C)O	GES1	cell growth or viability, CCK-8	72 h	–	> 50
Cc1c(C)c(-c2ccc(-c3ccccc3)cc2)[c-](C)c1C.Cc1c(C)c(-c2ccc(-c3ccccc3)cc2)[c-](C)c1C.[Cl-].[Cl-].[Cl-].[Cl-].[Ir+3].[Ir+3] (stereo not shown)	HeLa human cancer cells	cell growth, MTT	24 h	–	> 50
CC(=O)O[C@@H]1[C@H](OC(C)=O)[C@@H](C)O[C@H]1n1cc(F)c(NC(=O)/C=C/c2ccc(O)c(O)c2)nc1=O	BXPC-3	cell growth or viability, MTT	72 h	–	23.1

Excerpt of the above:
SMILES	cell line	test	conditions	how to read	IC50 [µM]
CO[C@@H]1[C@@H](O[C@@H]2O[C@H](C)[C@@H](O[C@H]3C[C@@](C)(O)[C@@H](OC(=O)Nc4ccc(C)cc4)[C@H](C)O3)[C@H](N(C)C)[C@H]2O)[C@@H](CC=O)C[C@@H](C)[C@@H](O[C@H]2CC[C@H](N(C)C)[C@@H](C)O2)/C=C/C=C/C[C@@H](C)OC(=O)C[C@H]1O	GES1	cell growth or viability, CCK-8	72 h	–	41.7
Cn1ccc(-c2cc(Cl)c(Cl)c3[nH]c4c(c23)CN(C(=O)CO)CC4)n1	wild-type mouse BMDM	CXCL10 secretion, inhibitor	with: 100 bp dsDNA	–	> 30
CC(=O)OC[C@H]1O[C@@H](NC(=O)CCCc2ccc3c(c2)CCCC3)[C@H](OC(C)=O)[C@@H](OC(C)=O)[C@@H]1OC(C)=O	human T-lymphocyte	cell growth or viability	72 h	–	116
C=C[CH2][Pd-]([Cl])[Cl].Cc1cc(C)c(-n2c[n+](-c3c(C)cc(C)cc3C)c3c2-c2cccc4cccc-3c24)c(C)c1	NTERA2	cell growth or viability	72 h, 3D culture	–	36
